# Experimental data gathered from unrelated publications.
# Protocols differ between the studies behind these lines. “And” joins repeats or separate records; there may be more than shown.
# T1: itself; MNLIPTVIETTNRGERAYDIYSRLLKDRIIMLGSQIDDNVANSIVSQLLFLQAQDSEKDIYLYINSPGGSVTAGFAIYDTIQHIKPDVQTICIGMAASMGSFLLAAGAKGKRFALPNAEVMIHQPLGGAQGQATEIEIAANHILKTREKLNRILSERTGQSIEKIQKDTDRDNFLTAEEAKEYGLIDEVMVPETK
# T2: itself; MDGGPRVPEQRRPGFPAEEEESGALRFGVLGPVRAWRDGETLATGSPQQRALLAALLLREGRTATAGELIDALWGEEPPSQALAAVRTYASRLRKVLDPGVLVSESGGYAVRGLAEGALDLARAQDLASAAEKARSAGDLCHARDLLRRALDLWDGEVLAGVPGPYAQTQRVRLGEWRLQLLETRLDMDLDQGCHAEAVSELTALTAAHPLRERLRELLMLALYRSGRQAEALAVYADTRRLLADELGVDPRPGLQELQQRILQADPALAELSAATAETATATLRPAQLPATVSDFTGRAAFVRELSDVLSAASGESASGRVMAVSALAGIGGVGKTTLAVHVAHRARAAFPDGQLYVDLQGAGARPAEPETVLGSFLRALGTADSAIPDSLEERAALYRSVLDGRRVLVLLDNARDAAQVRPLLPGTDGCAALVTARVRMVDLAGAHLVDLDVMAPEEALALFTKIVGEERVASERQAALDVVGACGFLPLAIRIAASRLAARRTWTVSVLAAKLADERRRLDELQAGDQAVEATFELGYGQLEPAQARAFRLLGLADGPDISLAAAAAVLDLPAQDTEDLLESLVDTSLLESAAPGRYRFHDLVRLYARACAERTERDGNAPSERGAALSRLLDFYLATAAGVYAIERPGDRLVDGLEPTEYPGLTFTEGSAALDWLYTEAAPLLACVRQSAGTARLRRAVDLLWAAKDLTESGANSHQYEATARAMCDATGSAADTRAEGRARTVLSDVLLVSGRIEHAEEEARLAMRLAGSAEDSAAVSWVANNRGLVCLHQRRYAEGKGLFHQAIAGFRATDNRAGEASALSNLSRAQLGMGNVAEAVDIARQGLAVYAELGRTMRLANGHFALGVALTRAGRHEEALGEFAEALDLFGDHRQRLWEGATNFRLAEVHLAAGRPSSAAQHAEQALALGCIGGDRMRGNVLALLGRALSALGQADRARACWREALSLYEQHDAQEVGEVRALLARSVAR
# B1: clpP 1-195 (Staphylococcus aureus, UniProt Q2G036); chain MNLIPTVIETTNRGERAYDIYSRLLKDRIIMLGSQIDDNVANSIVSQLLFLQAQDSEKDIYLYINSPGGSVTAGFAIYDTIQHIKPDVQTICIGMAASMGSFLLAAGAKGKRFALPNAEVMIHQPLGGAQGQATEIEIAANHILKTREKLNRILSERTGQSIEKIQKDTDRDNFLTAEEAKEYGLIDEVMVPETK
# B2: DPP4 39-766 (Homo sapiens, UniProt P27487); chain SRKTYTLTDYLKNTYRLKLYSLRWISDHEYLYKQENNILVFNAEYGNSSVFLENSTFDEFGHSINDYSISPDGQFILLEYNYVKQWRHSYTASYDIYDLNKRQLITEERIPNNTQWVTWSPVGHKLAYVWNNDIYVKIEPNLPSYRITWTGKEDIIYNGITDWVYEEEVFSAYSALWWSPNGTFLAYAQFNDTEVPLIEYSFYSDESLQYPKTVRVPYPKAGAVNPTVKFFVVNTDSLSSVTNATSIQITAPASMLIGDHYLCDVTWATQERISLQWLRRIQNYSVMDICDYDESSGRWNCLVARQHIEMSTTGWVGRFRPSEPHFTLDGNSFYKIISNEEGYRHICYFQIDKKDCTFITKGTWEVIGIEALTSDYLYYISNEYKGMPGGRNLYKIQLSDYTKVTCLSCELNPERCQYYSVSFSKEAKYYQLRCSGPGLPLYTLHSSVNDKGLRVLEDNSALDKMLQNVQMPSKKLDFIILNETKFWYQMILPPHFDKSKKYPLLLDVYAGPCSQKADTVFRLNWATYLASTENIIVASFDGRGSGYQGDKIMHAINRRLGTFEVEDQIEAARQFSKMGFVDNKRIAIWGWSYGGYVTSMVLGSGSGVFKCGIAVAPVSRWEYYDSVYTERYMGLPTPEDNLDHYRNSTVMSRAENFKQVEYLLIHGTADDNVHFQQSAQISKALVDVGVDFQAMWYTDEDHGIASSTAHQHIYTHMSHFIKQCFSLP
Molecule,tested on,test,test system,conditions,how to read,endpoint,result
UreE-F G21A (Klebsiella aerogenes),itself,SEC,,,,subunits per oligomer,2
RNA-dependent RNA polymerase fragment (Aspergillus fumigatus),itself,cryo-EM structure,,,,subunits per oligomer,10
gor L416A/F443A (Pseudomonas sp. JR-1),itself,SEC,,"pH 7.5, 4 °C",,subunits per oligomer,2
oseR (Streptococcus suis),itself,non-reducing SDS-PAGE,,,,subunits per oligomer,2
S HBsAg C107R (hepatitis B virus),itself,non-reducing SDS-PAGE Western blot,"Huh7, lysate",,,subunits per oligomer,2
PorB (Neisseria gonorrhoeae),itself,cross-linking,,,,subunits per oligomer,3
B1 (clpP 1-195),"T1, itself",crystal structure,,,,subunits per oligomer,14
uvrA (Clostridium thermocellum),itself,cryo-EM,,,,subunits per oligomer,2
Ec78 retron ABC ATPase E396Q (Escherichia coli),itself,cryo-EM,,,,subunits per oligomer,4
S HBsAg C138R (hepatitis B virus),itself,"Western blot, non-reducing SDS-PAGE","Huh7, lysate, supernatant","disulfide bonds kept, not purified",,subunits per oligomer,2
"gor full length, wild type (Pseudomonas sp. JR-1)",itself,SEC,,"pH 7.5, 4 °C",,subunits per oligomer,2
RL2 fragment (HSV-1),itself,crystal structure,,,,subunits per oligomer,2
"Dengue envelope protein soluble ectodomain, no stem/transmembrane (Dengue virus serotype 2)",itself,liposome sucrose gradient sedimentation,liposomes,,,subunits per oligomer,3
"HBV core protein -10 to 149 C48A/C107A/G123A, intramolecular disulfide (hepatitis B virus)",itself,AUC,,"oxidized, no DTT",,subunits per oligomer,2
bamA (Fusobacterium nucleatum),itself,cryo-EM,,,,subunits per oligomer,2
UreE-F R220A (Klebsiella aerogenes),itself,SEC,,,,subunits per oligomer,2
cmeC (Campylobacter jejuni),itself,SEC,,,,subunits per oligomer,3
HMWP (Physarum polycephalum),itself,"AUC, SEC",,,,subunits per oligomer,2
FraB (Salmonella),itself,native MS,,,,subunits per oligomer,2
"afsR (Streptomyces coelicolor, UniProt P25941)","T2, itself",cryo-EM,,,,subunits per oligomer,2
AnmK (Pseudomonas aeruginosa),itself,AUC,,4 °C,,subunits per oligomer,2 and 4
UreE-F S26A (Klebsiella aerogenes),itself,SEC,,,,subunits per oligomer,2
F-BclA C-terminal domain (Bacillus thuringiensis subsp. kurstaki),itself,crystal structure,,,,subunits per oligomer,3
UreE-F H214A (Klebsiella aerogenes),itself,SEC,,,,subunits per oligomer,2
GP2 soluble ectodomain (lymphocytic choriomeningitis virus),itself,cross-linking,,,,subunits per oligomer,3
dye-decolorizing peroxidase (Klebsiella pneumoniae),itself,"native gel, EMSA, SEC",,,,subunits per oligomer,6 and 2
AimR (Bacillus amyloliquefaciens prophage),itself,SEC-MALS,,without peptide,,subunits per oligomer,2
gor L416F (Pseudomonas sp. JR-1),itself,SEC,,"pH 7.5, 4 °C",,subunits per oligomer,2
Aca11 fragment (Streptococcus sp),itself,SEC-MALS,,,,subunits per oligomer,2
GluA4/TARPγ2 (Rattus norvegicus/Homo sapiens),itself,SEC,,,,subunits per oligomer,4
UreE-F L221A (Klebsiella aerogenes),itself,SEC,,,,subunits per oligomer,2
gor L416E (Pseudomonas sp. JR-1),itself,SEC,,"pH 7.5, 4 °C",,subunits per oligomer,2
"CapV apo, wild type (Acinetobacter baumannii)",itself,cryo-EM,,,,subunits per oligomer,2
UreE-F Q171A (Klebsiella aerogenes),itself,SEC,,,,subunits per oligomer,2
B2 (DPP4 39-766),itself,SEC-MALS,,,,subunits per oligomer,2
gor F443A (Pseudomonas sp. JR-1),itself,SEC,,"pH 7.5, 4 °C",,subunits per oligomer,2
insulin human,,item: CAMK4 mRNA,"uninfected mouse, brain","i.p., dose not given",reference: PBS,fold change,1.28
porB L3 loop shortened (Neisseria gonorrhoeae),itself,cross-linking,,,,subunits per oligomer,2
UreE-F P19A (Klebsiella aerogenes),itself,SEC,,,,subunits per oligomer,2
"HBV core protein -10 to 151 C48A/C107A, intramolecular disulfide (hepatitis B virus)",itself,AUC,,"oxidized, no DTT",,subunits per oligomer,2

# For quick reference, copied from above:
Molecule,tested on,test,test system,conditions,how to read,endpoint,result
PorB (Neisseria gonorrhoeae),itself,cross-linking,,,,subunits per oligomer,3
AimR (Bacillus amyloliquefaciens prophage),itself,SEC-MALS,,without peptide,,subunits per oligomer,2
gor L416E (Pseudomonas sp. JR-1),itself,SEC,,"pH 7.5, 4 °C",,subunits per oligomer,2
oseR (Streptococcus suis),itself,non-reducing SDS-PAGE,,,,subunits per oligomer,2
GP2 soluble ectodomain (lymphocytic choriomeningitis virus),itself,cross-linking,,,,subunits per oligomer,3
